Published values from different studies.
“And” joins repeats or separate records; there may be more than shown. ± marks the error that the study gave.
WD repeat-containing protein 91 WD40 domain, residues 392–747: WD repeat-containing protein 91, WD40 domain, residues 392–747 (Homo sapiens, UniProt A4D1P6)
Chain of UniProt A4D1P6 (whole entry, looked up): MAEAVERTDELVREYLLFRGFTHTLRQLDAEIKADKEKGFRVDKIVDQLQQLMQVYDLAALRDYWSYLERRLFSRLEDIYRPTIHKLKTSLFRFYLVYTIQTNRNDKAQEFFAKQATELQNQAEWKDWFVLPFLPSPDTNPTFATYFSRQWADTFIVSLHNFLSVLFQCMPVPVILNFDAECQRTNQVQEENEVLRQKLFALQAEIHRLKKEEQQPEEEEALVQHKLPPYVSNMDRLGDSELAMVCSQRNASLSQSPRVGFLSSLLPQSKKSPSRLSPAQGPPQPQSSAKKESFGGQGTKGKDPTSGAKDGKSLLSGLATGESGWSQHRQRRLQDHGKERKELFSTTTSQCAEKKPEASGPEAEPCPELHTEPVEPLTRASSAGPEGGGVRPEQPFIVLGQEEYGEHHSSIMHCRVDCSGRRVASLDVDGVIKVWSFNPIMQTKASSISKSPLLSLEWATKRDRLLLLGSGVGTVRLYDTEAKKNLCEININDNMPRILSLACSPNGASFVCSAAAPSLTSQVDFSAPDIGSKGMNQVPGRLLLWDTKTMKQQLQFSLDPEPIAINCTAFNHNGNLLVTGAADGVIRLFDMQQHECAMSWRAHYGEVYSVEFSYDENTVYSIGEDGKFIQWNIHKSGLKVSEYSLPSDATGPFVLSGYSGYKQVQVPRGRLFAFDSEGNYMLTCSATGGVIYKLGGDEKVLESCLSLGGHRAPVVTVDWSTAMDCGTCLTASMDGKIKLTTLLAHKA
Genome polyprotein NS3 helicase domain: Genome polyprotein, NS3 helicase domain (Hepatitis C virus genotype 1b, UniProt Q9WMX2)
WD repeat-containing protein 91: WD repeat-containing protein 91 (Homo sapiens, UniProt A4D1P6)
ESR1: Estrogen receptor (ESR1, Homo sapiens, UniProt P03372)
CDK2: Cyclin-dependent kinase 2 (CDK2, Homo sapiens, UniProt P24941)
Chain of UniProt O76090 (whole entry, unmodified, looked up): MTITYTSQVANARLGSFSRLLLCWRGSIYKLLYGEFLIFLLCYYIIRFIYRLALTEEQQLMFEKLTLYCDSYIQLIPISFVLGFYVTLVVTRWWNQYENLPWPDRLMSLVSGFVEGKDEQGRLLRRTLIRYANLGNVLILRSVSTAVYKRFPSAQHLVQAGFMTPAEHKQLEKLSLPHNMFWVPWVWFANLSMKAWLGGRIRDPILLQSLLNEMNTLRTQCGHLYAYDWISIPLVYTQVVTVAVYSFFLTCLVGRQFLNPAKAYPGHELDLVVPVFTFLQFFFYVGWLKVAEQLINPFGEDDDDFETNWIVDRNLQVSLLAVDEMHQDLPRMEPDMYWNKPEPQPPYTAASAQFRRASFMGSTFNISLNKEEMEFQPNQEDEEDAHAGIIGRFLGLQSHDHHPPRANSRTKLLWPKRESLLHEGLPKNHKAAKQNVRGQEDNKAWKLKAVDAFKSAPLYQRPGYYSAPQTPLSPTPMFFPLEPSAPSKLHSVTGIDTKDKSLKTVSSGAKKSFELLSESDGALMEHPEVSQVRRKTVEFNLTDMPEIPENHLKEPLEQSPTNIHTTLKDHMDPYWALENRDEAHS
Chain of UniProt Q16774 (whole entry, looked up): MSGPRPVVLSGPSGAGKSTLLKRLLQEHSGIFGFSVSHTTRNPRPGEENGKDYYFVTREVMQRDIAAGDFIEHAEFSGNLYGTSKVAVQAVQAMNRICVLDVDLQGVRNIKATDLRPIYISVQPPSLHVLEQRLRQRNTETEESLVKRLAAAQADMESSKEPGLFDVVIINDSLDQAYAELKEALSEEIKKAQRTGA
Chain of UniProt P51449 (whole entry, looked up): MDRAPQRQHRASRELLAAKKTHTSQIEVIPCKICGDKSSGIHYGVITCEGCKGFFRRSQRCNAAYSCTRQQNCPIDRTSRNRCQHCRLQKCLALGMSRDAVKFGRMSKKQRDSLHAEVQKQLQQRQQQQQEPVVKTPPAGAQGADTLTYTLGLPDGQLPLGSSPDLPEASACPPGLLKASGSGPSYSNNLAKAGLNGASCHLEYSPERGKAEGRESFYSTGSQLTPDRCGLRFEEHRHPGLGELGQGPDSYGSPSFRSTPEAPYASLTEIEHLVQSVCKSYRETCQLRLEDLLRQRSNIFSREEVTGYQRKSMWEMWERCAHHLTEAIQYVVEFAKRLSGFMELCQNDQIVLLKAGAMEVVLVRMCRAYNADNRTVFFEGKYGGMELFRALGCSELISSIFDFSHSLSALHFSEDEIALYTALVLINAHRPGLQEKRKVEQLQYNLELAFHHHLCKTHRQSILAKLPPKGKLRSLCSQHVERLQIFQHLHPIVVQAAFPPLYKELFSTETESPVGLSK

For `COc1cc(F)ccc1-c1ncnc(Nc2cccc(C[S@](C)(=N)=O)c2)n1`, the remaining activity was 75% (Serine/threonine-protein kinase BRSK2 (BRSK2, Homo sapiens, UniProt Q8IWQ3); kinase activity; 10 µM, with: 10 µM ATP).
For `Cc1ccc(NC(=O)/C=C/c2cccs2)cc1`, potentiation read “inactive” (Voltage-dependent N-type calcium channel subunit alpha-1B (Homo sapiens, UniProt Q00975); potentiator; HEK293T; concentration not given).
For `NC(=O)[C@@H]1CN(C(=O)c2cc3cccn3cn2)C[C@H]1c1ccccc1`, the binding was -19% and -6% (WD repeat-containing protein 91 WD40 domain, residues 392–747; SPR; 45 µM).
The inhibition of `CCCn1cnc2c1c(=O)n(CCCCC(C)=O)c(=O)n2C` is reported as 1% (Genome polyprotein NS3 helicase domain; DNA binding, inhibitor; hepatitis C virus; 100 µM, with: Cy5-dT15 DNA).
The IC50 of `Cc1cnc(NS(=O)(=O)c2c(C)[nH]c(C)c2C(=O)N2CCC(F)(F)C2)cc1Cl` is reported as > 100 µM (D(3) dopamine receptor (DRD3, Homo sapiens, UniProt P35462); β-arrestin recruitment, antagonist, PathHunter; with: dopamine EC80).
`COc1cc(/C=C2\CC/C(=C\c3ccc(O)c(OC)c3)C2=O)ccc1O` gave a ΔS of -194.2 ± 0.14 J/(mol·K) (haemin; binding, isothermal titration calorimetry; pH 7.4, 37 °C).
With `CSc1nc(N)c2ncn([C@@H]3O[C@H](COP(=O)(O)OP(=O)(O)O)[C@@H](O)[C@H]3O)c2n1` the inhibition was 33% (Genome polyprotein NS3 helicase domain; DNA binding, inhibitor; hepatitis C virus; 100 µM, with: Cy5-dT15 DNA).
`Nc1ccc(C(=O)O)cc1` has a current density of 34.4 pA/pF and 47.7 pA/pF and 28.6 pA/pF and 26.2 pA/pF and 13.4 pA/pF (BEST1, with wild-type BEST1 (Homo sapiens, UniProt O76090, A10T); whole-cell patch clamp; HEK293 co-expressing WT and A10T mutant; concentration not given, membrane potential 80 mV).
For `O=C(NC1CCCS(=O)(=O)c2ccccc21)c1ccc2nc(O)cnc2c1` (stereo not drawn), the SPR response was 45.3 RU (WD repeat-containing protein 91; binding, SPR steady state; 30 µM).
With `CC(C)NCC(O)COc1ccc(COCCOC(C)C)cc1.CC(C)NCC(O)COc1ccc(COCCOC(C)C)cc1.O=C(O)/C=C/C(=O)O` (stereo not drawn) the inhibition was 2% (Genome polyprotein NS3 helicase domain; DNA binding, inhibitor; hepatitis C virus; 100 µM, with: Cy5-dT15 DNA).
The remaining activity of `COc1ccc(F)cc1C(=O)NCc1ccc(-c2nn([C@@H](C)C(F)(F)F)c(N)c2C(N)=O)cc1` is reported as 99.2 ± 0.6% (Fibroblast growth factor receptor 2 (FGFR2, Homo sapiens, UniProt P21802); kinase activity, inhibitor, HotSpot radiometric; 100 nM, with: ATP 10 µM).
Under “alpha rate constant”, `[O-][S+]1CCCCS1` (stereo not drawn) is recorded as 0.0264 h⁻¹ (Superoxide dismutase [Cu-Zn] (SOD1, Homo sapiens, UniProt P00441, G94A); one-compartment model; SOD1 G93A transgenic mice, whole blood; iv, 10 mg/kg).
For `O=S(=O)(c1cccc(C(F)(F)F)c1)N1CCc2ccc(OCc3c(F)cncc3Cl)cc21`, “maximum fold change” read 0.76 ± 0.12 (Nuclear receptor ROR-gamma (RORC, Homo sapiens, UniProt P51449); reporter gene, agonist, GAL4 luciferase reporter; with: ursolic acid 2 µM; reference: DMSO).
For `Cc1nc(N=Nc2cc(S(=O)(=O)[O-])c3cc([N+](=O)[O-])cc(S(=O)(=O)[O-])c3c2)c(COP(=O)([O-])[O-])c(C=O)c1O.[Na+].[Na+].[Na+].[Na+]`, the inhibition was 58% (Genome polyprotein NS3 helicase domain; DNA binding, inhibitor; hepatitis C virus; 100 µM, with: Cy5-dT15 DNA).
The reaction velocity of `Nc1nc2c(ncn2[C@@H]2O[C@H](COP(=O)(O)O)[C@@H](O)[C@H]2O)c(=O)[nH]1` is reported as 0.0684 µM/s and 0.086 µM/s and 0.0705 µM/s (GUK1 (Homo sapiens, UniProt Q16774); enzyme activity, NADH-coupled; 62.5 µM, with: KCl 150 mM).
`FC(F)(F)c1ccccc1-n1ccnc1` has an inhibition of 0% (Genome polyprotein NS3 helicase domain; DNA binding, inhibitor; hepatitis C virus; 100 µM, with: Cy5-dT15 DNA).
`Cn1cc(-c2ccc(-c3cncc(Cl)c3N3CCC4(CCNC4=O)CC3)cc2)cn1` — result for “fold change in expression”: 2.53 (COLO 205; microarray, measured: KITLG; concentration not given, 6 h, gene set MGF; reference: untreated cells).
The kcat of `CC1=CC(=O)C(C)=C(C)C1=O` is reported as 9.07 ± 0.35 s⁻¹ (ancestral FSP1; oxidoreductase activity, substrate; with: co-substrate 100 µM fixed).
The remaining binding of `C=CC(=O)N1CCC(COCC(=O)N2CCN(c3nc(-c4cnc(N)nc4C(F)F)nc(N4CCOC[C@@H]4C)n3)CC2)CC1` is reported as 80% (Tyrosine-protein kinase Mer (MERTK, Homo sapiens, UniProt Q12866); KINOMEscan; 1 µM).
For `O=C(N[C@@H]1CCc2cc(Cl)ccc21)c1cccc(-c2cnco2)c1`, the binding was -26% and -2% (WD repeat-containing protein 91 WD40 domain, residues 392–747; SPR; 45 µM).
For `CC[C@@H]1[C@H](F)C(=O)N[C@@H]1COc1nccc2cc(C(N)=O)c(OC)cc12`, the inhibition was -9.4% (Dual specificity mitogen-activated protein kinase kinase 4 (MAP2K4, Homo sapiens, UniProt P45985); ATP-site probe binding, ActivX profiling; THP-1 cell lysate; 0.01 mM, Lys1 site).
The selectivity ratio of `Oc1ccc2c(c1)OC[C@H]1c3cc4c(cc3O[C@@H]21)OCO4` is reported as 0.783 (ESR1; array formation; PRL-HeLa; reference: EC50 ERβ over EC50 ERα).
`COc1cc(Nc2ncc3c(n2)-c2ccc(Cl)cc2C(c2c(F)cccc2OC)=NC3)ccc1C(=O)O` has a remaining activity of 111% (MAPKAPK2; kinase activity; 1 µM).
`O=C(COc1ccccc1[N+](=O)[O-])Nc1ccccc1N1CCOCC1` gave a Kd of > 100 µM (CDK2; binding).
`COC(=O)c1cn(C)c2ccc(-c3cccnc3)cc12` has an activation of 0.54 fold (Nuclear receptor subfamily 4 group A member 3, ligand-binding domain (Homo sapiens, UniProt Q92570); reporter gene, Gal4 hybrid reporter; 10 µM; reference: vehicle).
The activation of `Nc1c(Br)cc(Br)cc1CN[C@H]1CC[C@H](O)CC1` is reported as 7% (Glutamate receptor 2 (Homo sapiens, UniProt P42262); ion current, agonist, SyncroPatch patch clamp; HEK293; 3 µM).
For `COc1ccc(-c2nnc(SCC(=O)Nc3c(F)cc(F)cc3Br)n2C)cc1`, the Kd was > 100 µM (CDK2; binding).
The inhibition of `CC(C)[N+](C)(CCOC(=O)C1c2ccccc2Oc2ccccc21)C(C)C` is reported as 0% (Genome polyprotein NS3 helicase domain; DNA binding, inhibitor; hepatitis C virus; 100 µM, with: Cy5-dT15 DNA).
Under “surface TFRC expression”, `CC[C@@H](C)[C@@H](NC(=O)[C@@H](Cc1ccc(O)cc1)NC(=O)[C@H]1CCCN1C(=O)[C@@H](CCCNC(=N)N)NC(=O)[C@H](N)Cc1c[nH]cn1)C(=O)N[C@H](C)C(=O)N[C@H](Cc1c[nH]cn1)C(=O)N[C@H](CCCNC(=N)N)C(=O)N[C@@H](C(=O)N[C@H](Cc1ccc(O)cc1)C(=O)N[C@H](CO)C(=O)N[C@H](Cc1ccccc1)C(N)=O)C(C)C` is recorded as 0.987 (Transferrin receptor protein 1 (Tfrc, Mus musculus, UniProt Q62351); flow cytometry; DC2.4; 24 h, pH 6, replicate 2, unit not given; reference: 0 h).
`CCn1c(=O)[nH]c2cc(C(=O)NC(c3ccc(F)cc3)c3cnn(C)c3)ccc2c1=O` (stereo not drawn) has an SPR response of 13.3 RU (WD repeat-containing protein 91; binding, SPR steady state; 1.875 µM).
`N#CC1CCN(C(=O)c2ccc(CNc3cccc4c3CCCC4)cc2)CC1` gave a binding of 30% and 55% (WD repeat-containing protein 91 WD40 domain, residues 392–747; SPR; 45 µM).
The ΔΔG of `CC[C@H](C)[C@H](NC(=O)[C@H](CCCCN)NC(=O)CNC(=O)[C@@H](NC(=O)[C@@H](NC(=O)[C@H](CCSC)NC(=O)[C@H](Cc1c[nH]cn1)NC(=O)CN)[C@@H](C)O)C(C)C)C(=O)N[C@@H](Cc1ccc(O)cc1)C(=O)N[C@@H](C)C(=O)N[C@@H](C)C(=O)N[C@@H](C)C(=O)N[C@@H](CCSC)C(=O)N[C@H](C(=O)N[C@@H](CCSC)C(=O)N[C@@H](CCC(=O)O)C(=O)N[C@@H](Cc1ccc(O)cc1)C(=O)N[C@@H](Cc1ccc(O)cc1)C(=O)N[C@@H](CCCNC(=N)N)C(=O)N[C@@H](CCC(N)=O)C(=O)N[C@@H](CO)C(=O)N[C@@H](CCCCN)C(=O)N[C@@H](C)C(=O)N[C@@H](CCCCN)C(=O)N[C@@H](CCCCN)C(=O)N[C@@H](CC(C)C)C(=O)N[C@@H](CCC(N)=O)C(=O)N[C@@H](C)C(=O)N[C@@H](CCSC)C(=O)N[C@@H](CCCNC(=N)N)C(=O)O)[C@@H](C)CC` is reported as 0.64 (Calmodulin-1, Ca2+-bound N-lobe (CALM1, Homo sapiens, UniProt P0DP23); binding, isothermal titration calorimetry; N-lobe, CaV2.1 IQ domain, unit not given, with: Ca2+; reference: wild-type IQ domain).
For `C[C@]12CC[C@@H]3c4ccc(O)cc4C[C@@H](CCCCCCCCC[S+]([O-])CCCC(F)(F)C(F)(F)F)[C@H]3[C@@H]1CC[C@@H]2O` (stereo partly drawn), the antagonist response was 49.8% (ESR1; antagonist, CALUX reporter; U2OS; 3e-10 µg/mL).

Excerpt of the above:
`FC(F)(F)c1ccccc1-n1ccnc1` has an inhibition of 0% (Genome polyprotein NS3 helicase domain; DNA binding, inhibitor; hepatitis C virus; 100 µM, with: Cy5-dT15 DNA).
The remaining binding of `C=CC(=O)N1CCC(COCC(=O)N2CCN(c3nc(-c4cnc(N)nc4C(F)F)nc(N4CCOC[C@@H]4C)n3)CC2)CC1` is reported as 80% (Tyrosine-protein kinase Mer (MERTK, Homo sapiens, UniProt Q12866); KINOMEscan; 1 µM).
For `CC[C@@H]1[C@H](F)C(=O)N[C@@H]1COc1nccc2cc(C(N)=O)c(OC)cc12`, the inhibition was -9.4% (Dual specificity mitogen-activated protein kinase kinase 4 (MAP2K4, Homo sapiens, UniProt P45985); ATP-site probe binding, ActivX profiling; THP-1 cell lysate; 0.01 mM, Lys1 site).
The kcat of `CC1=CC(=O)C(C)=C(C)C1=O` is reported as 9.07 ± 0.35 s⁻¹ (ancestral FSP1; oxidoreductase activity, substrate; with: co-substrate 100 µM fixed).
The ΔΔG of `CC[C@H](C)[C@H](NC(=O)[C@H](CCCCN)NC(=O)CNC(=O)[C@@H](NC(=O)[C@@H](NC(=O)[C@H](CCSC)NC(=O)[C@H](Cc1c[nH]cn1)NC(=O)CN)[C@@H](C)O)C(C)C)C(=O)N[C@@H](Cc1ccc(O)cc1)C(=O)N[C@@H](C)C(=O)N[C@@H](C)C(=O)N[C@@H](C)C(=O)N[C@@H](CCSC)C(=O)N[C@H](C(=O)N[C@@H](CCSC)C(=O)N[C@@H](CCC(=O)O)C(=O)N[C@@H](Cc1ccc(O)cc1)C(=O)N[C@@H](Cc1ccc(O)cc1)C(=O)N[C@@H](CCCNC(=N)N)C(=O)N[C@@H](CCC(N)=O)C(=O)N[C@@H](CO)C(=O)N[C@@H](CCCCN)C(=O)N[C@@H](C)C(=O)N[C@@H](CCCCN)C(=O)N[C@@H](CCCCN)C(=O)N[C@@H](CC(C)C)C(=O)N[C@@H](CCC(N)=O)C(=O)N[C@@H](C)C(=O)N[C@@H](CCSC)C(=O)N[C@@H](CCCNC(=N)N)C(=O)O)[C@@H](C)CC` is reported as 0.64 (Calmodulin-1, Ca2+-bound N-lobe (CALM1, Homo sapiens, UniProt P0DP23); binding, isothermal titration calorimetry; N-lobe, CaV2.1 IQ domain, unit not given, with: Ca2+; reference: wild-type IQ domain).
`Nc1ccc(C(=O)O)cc1` has a current density of 34.4 pA/pF and 47.7 pA/pF and 28.6 pA/pF and 26.2 pA/pF and 13.4 pA/pF (BEST1, with wild-type BEST1 (Homo sapiens, UniProt O76090, A10T); whole-cell patch clamp; HEK293 co-expressing WT and A10T mutant; concentration not given, membrane potential 80 mV).
